Assay results from different studies.
Every numbered part comes from another study and shows a few of its results, in no order. “And” joins repeats or separate records; there may be more than shown.

Block 1
SMILES: O=c1[nH]c(=S)n(C[C@H]2CCCO2)c2nc[nH]c12
MPO: Myeloperoxidase (MPO, Homo sapiens, UniProt P05164)
Chain of UniProt P05164 (whole entry, looked up): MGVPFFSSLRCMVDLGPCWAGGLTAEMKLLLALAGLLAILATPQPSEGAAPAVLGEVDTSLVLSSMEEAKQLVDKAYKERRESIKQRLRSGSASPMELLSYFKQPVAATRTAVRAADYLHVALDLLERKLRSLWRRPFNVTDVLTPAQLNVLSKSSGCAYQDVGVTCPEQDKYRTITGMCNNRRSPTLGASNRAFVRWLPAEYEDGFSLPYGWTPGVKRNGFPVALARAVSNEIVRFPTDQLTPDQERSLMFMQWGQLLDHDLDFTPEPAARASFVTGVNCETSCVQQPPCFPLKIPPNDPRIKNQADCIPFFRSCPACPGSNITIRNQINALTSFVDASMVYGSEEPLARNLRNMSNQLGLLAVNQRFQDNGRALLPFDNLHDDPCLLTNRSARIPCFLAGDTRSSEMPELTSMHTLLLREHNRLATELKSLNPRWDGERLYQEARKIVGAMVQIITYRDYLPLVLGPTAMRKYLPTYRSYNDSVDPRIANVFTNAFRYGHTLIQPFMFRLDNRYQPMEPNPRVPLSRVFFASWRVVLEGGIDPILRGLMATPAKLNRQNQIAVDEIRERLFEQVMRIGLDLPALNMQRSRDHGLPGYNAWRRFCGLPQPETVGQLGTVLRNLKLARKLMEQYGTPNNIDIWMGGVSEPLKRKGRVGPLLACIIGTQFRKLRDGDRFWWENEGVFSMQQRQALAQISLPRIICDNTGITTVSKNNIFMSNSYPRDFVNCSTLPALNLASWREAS
AOC3: Amine oxidase [copper-containing] 3 (AOC3, Homo sapiens, UniProt Q16853)
Chain of UniProt Q16853 (whole entry, looked up): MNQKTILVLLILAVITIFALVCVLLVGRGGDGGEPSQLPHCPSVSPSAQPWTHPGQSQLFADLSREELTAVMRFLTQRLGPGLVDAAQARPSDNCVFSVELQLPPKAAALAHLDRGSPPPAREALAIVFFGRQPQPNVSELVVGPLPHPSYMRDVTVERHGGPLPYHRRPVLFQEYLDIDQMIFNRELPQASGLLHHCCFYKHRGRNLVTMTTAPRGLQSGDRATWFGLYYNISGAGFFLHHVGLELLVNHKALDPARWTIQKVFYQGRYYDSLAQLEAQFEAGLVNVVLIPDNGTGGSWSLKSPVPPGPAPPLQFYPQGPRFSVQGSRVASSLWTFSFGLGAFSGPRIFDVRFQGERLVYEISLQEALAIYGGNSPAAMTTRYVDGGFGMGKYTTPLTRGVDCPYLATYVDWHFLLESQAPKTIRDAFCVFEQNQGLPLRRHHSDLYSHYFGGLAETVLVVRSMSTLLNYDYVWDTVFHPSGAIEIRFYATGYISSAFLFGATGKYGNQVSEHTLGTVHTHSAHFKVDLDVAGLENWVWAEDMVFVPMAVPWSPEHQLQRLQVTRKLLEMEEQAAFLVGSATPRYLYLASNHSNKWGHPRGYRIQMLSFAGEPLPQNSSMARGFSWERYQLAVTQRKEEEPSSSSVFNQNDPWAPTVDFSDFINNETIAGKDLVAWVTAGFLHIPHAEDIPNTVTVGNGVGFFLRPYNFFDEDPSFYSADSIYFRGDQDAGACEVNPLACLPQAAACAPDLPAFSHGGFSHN
The inhibition was 101% (MPO; Amplex Red; 30 µM).
The inhibition was 8.65% (AOC3; enzyme activity, Amplex Red H2O2 production; 0.0046 µM).
AOC3; enzyme activity, Amplex Red H2O2 production; 0.0015 µM — inhibition: 6.58%.
AOC3; enzyme activity, Amplex Red H2O2 production; 0.0412 µM — inhibition: 13.1%.
For MPO; enzyme activity; 0.0008 µM: inhibition read -15% and -9.71% and -22.1% and -1.68% and -15.2% and -10.4% and 15.2%.
The inhibition was 6.3% (AOC3; enzyme activity, Amplex Red H2O2 production; 0.0005 µM).
The inhibition was 56.8% and 62.4% and 58.7% and 39.4% and 75.8% and 44.1% (MPO; enzyme activity, inhibitor, fluorescence; 0.1235 µM).
It gave 90.8% for inhibition (MPO; Amplex Red; 0.3704 µM).

Block 2
SMILES: C[C@@H]1CN(c2ccc(-c3cc(C(=O)NCCOCCOCCOCCOCCNC(=O)/C=C/c4[nH]cc(C(=O)N[C@@H](CC(N)=O)c5ccc(F)c(Cl)c5)c4-c4ccc(Cl)cc4F)ccc3F)cc2NC(=O)c2c[nH]c(=O)cc2C(F)(F)F)C[C@H](C)N1C
Read-out: thermal unfolding
Method: differential scanning fluorimetry
Concentration: 5.5 µM
Direction: higher = more unfolded
WDR5: WD repeat-containing protein 5 (WDR5, Homo sapiens, UniProt P61964)
DCAF1: DDB1- and CUL4-associated factor 1 (DCAF1, Homo sapiens, UniProt Q9Y4B6)
Chain of UniProt Q9Y4B6 (whole entry, looked up): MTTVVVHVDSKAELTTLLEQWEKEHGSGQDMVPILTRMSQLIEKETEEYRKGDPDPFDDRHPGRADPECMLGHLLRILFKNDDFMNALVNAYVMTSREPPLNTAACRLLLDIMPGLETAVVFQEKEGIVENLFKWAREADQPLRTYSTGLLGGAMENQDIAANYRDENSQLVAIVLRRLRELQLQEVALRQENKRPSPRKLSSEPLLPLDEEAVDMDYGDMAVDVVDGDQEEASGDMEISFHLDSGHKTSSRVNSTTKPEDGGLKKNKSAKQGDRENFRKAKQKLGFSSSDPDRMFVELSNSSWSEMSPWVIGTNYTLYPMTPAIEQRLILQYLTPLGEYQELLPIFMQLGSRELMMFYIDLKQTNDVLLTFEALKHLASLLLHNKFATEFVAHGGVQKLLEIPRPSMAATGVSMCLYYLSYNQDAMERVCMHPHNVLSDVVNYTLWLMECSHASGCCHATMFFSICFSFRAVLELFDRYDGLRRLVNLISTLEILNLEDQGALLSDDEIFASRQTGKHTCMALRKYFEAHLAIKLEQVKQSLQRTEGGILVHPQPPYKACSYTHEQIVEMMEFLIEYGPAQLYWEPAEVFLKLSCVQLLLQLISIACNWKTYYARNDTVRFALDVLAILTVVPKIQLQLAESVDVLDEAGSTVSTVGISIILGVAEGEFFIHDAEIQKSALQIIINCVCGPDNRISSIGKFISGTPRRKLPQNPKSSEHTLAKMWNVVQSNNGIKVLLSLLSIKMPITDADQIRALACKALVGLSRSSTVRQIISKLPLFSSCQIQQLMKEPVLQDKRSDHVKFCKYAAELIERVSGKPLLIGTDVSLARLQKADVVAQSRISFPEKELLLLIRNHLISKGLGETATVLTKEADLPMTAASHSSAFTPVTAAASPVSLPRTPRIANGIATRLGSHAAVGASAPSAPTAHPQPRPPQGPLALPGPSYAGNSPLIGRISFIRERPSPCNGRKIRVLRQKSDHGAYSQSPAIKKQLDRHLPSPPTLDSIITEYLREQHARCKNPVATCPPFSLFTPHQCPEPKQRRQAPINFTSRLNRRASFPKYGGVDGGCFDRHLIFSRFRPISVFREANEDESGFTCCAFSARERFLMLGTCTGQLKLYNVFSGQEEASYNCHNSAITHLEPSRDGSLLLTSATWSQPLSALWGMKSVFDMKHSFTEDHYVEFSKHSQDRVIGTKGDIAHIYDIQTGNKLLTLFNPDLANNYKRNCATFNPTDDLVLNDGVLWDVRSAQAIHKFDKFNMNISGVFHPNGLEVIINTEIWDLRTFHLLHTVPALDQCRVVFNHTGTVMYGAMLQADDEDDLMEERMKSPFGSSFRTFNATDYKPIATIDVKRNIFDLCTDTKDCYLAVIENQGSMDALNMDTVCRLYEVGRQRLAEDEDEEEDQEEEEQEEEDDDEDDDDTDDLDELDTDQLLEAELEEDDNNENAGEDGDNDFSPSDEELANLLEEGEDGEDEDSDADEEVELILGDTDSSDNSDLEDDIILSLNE
WDR5; 42.2 °C — “SYPRO Orange fluorescence”: 14900 a.u.
The “SYPRO Orange fluorescence” was 16700 a.u. (WDR5; 53.61 °C).
It gave 12800 a.u. for “SYPRO Orange fluorescence” (WDR5; 28.8 °C).
The “SYPRO Orange fluorescence” was 13800 a.u. (WDR5; 40.4 °C).
For DCAF1; 59.01 °C: “SYPRO Orange fluorescence” read 35900 a.u.
The “SYPRO Orange fluorescence” was 9740 a.u. (DCAF1; 32.2 °C).
The “SYPRO Orange fluorescence” was 8890 a.u. (DCAF1; 26.6 °C).
For DCAF1; 40.8 °C: “SYPRO Orange fluorescence” read 11800 a.u.

Block 3
SMILES: Cc1ncsc1-c1ccc(C(CO)NC(=O)C2CC(O)CN2C(=O)C(C(C)C)n2cc(-c3ccc(COc4c(-c5c(C)c(F)cc6[nH]ncc56)c(C5CC5)cc5c(N6CC7CC6CN7)nc(OC6CCOCC6)nc45)cc3)nn2)cc1 (stereo not shown)
Route: intravenous
It gave 1180 ng/g and 1370 ng/g for concentration (male Balb/c nu/nu mouse, PK-59 xenograft, tumor; 30 mg/kg, 24 h).
For mouse (PK-59 xenograft), pancreas; 30 mg/kg, 48 h: concentration read 139 ng/g.
male Balb/c nu/nu mouse (PK-59 xenograft), tumor; 10 mg/kg, 24 h — concentration: 172 ng/g.
For mouse, PK-59 xenograft, tumor; 10 mg/kg, 144 h: concentration read 77 ng/g and 113 ng/g and 171 ng/g.
It gave 118 ng/g and 153 ng/g for concentration (mouse, PK-59 xenograft, tumor; 10 mg/kg, 72 h).
It gave 4.51 ng/mL and 6.67 ng/mL and 3.14 ng/mL for concentration (mouse (PK-59 xenograft), plasma; 10 mg/kg, 48 h).
The concentration was 770 ng/g (mouse (PK-59 xenograft), tumor; 30 mg/kg, 48 h).
mouse (PK-59 xenograft), plasma; 30 mg/kg, 48 h — concentration: 16.6 ng/mL and 14.2 ng/mL.

Other studies, line by line
The fu of `CC[C@@]1(c2cccc(C(F)(F)F)c2)C2=C(Nc3n[nH]cc31)[C@H](F)C(C)(C)CC2=O` (single isomer, unassigned) is reported as 0.0184 (mouse plasma; 4 h).

Some of these lines once more (block 2):
The “SYPRO Orange fluorescence” was 13800 a.u. (WDR5; 40.4 °C).
